# Assay results gathered from unrelated publications.
# “And” joins repeats or separate records; there may be more than shown. ± gives the spread as reported.
# CYP3A7: Cytochrome P450 3A7 (CYP3A7, Homo sapiens, UniProt P24462)
# PROK: Proteinase K (PROK, Engyodontium album, UniProt P06873)
Compound,tested on,assay,test system,conditions,scale,endpoint,result
O=S(=O)(c1cccc2c(Cl)cccc12)N1CCCNCC1,Plasmodium falciparum,,Dd2,,,IC50,6.31 µM
O=c1ccc2ccccc2o1,NHEK,cell count,,"concentration not given, 6 h, heat and osmotic shock panel",,chance response,0.01%
Cc1cc2nc3c(=O)[nH]c(=O)nc-3n(C[C@H](O)[C@H](O)[C@H](O)COP(=O)(O)O)c2cc1C,"Oxygen-insensitive NAD(P)H nitroreductase (nfsB, Escherichia coli K-12, UniProt P38489, K14Q)","bound cofactor redox, redox titration",,"pH 7.0, 25 °C, anaerobic",,midpoint potential,-195 ± 5 mV
NCC(O)C1CCCCCCC1 (centres unmarked),Plasmodium falciparum,,GB4,,,IC50,5.01 µM
Cn1nccc1[C@]1(CNC(=O)c2ccc(F)c(F)c2-c2ccc(C(F)(F)F)cc2)NC(=O)NC1=O,"Sodium channel protein type 5 subunit alpha (SCN5A, Homo sapiens, UniProt Q14524)",inhibitor,human cells,,,highest concentration without inhibition,> 10 µM
CC(C)=CC1C(C(=O)OC(C#N)c2cccc(Oc3ccccc3)c2)C1(C)C (centres unmarked),human microsomal CES2,IVIVE from expressed enzymes,"human, liver, in vivo scaled",age-specific,,enzyme contribution to CLint,0.15%
O=S(=O)(O)C(F)(F)C(F)(F)C(F)(F)C(F)(F)C(F)(F)C(F)(F)F,CYP3A7,type I binding spectrum,,"pH 7.4, second binding event",,Hill coefficient,1.25
COc1ccc2cc1Oc1ccc(cc1)C[C@H]1c3cc(c(OC)cc3CCN1C)Oc1c(OC)c(OC)cc3c1[C@H](C2)N(C)CC3,"Organic anion transporter 3 (SLC22A8, Homo sapiens, UniProt Q8TCC7)","transport, inhibitor",,"10 µM, together with: ES",,inhibition,20%
O=S(=O)(O)C(F)(F)C(F)(F)C(F)(F)C(F)(F)C(F)(F)C(F)(F)C(F)(F)C(F)(F)F,CYP3A7,"enzyme activity, inhibitor",,"10 µM, together with: dibenzylfluorescein 0.15 µM",relative to: DMSO,inhibition,35.1 ± 2.99%
O=S(=O)(NCCNC/C=C/c1ccc(Br)cc1)c1cccc2cnccc12,PKA,inhibitor,mouse zygotes,"20 µM, injection, hCG, 120 h post, early embryonic development",,dead embryos,26.3% and 30% and 17.6%
C[C@H](NC(=O)[C@H](Cc1cnc[nH]1)NC(=O)[C@H](CO)NC(=O)[C@@H](N)CC(=O)O)C(=O)N[C@@H](CCCCN)C(=O)N[C@@H](CCCNC(=N)N)C(=O)N[C@@H](Cc1cnc[nH]1)C(=O)N[C@@H](Cc1cnc[nH]1)C(=O)NCC(=O)N[C@@H](Cc1ccc(O)cc1)C(=O)N[C@@H](CCCCN)C(=O)N[C@@H](CCCNC(=N)N)C(=O)N[C@@H](CCCCN)C(=O)N[C@@H](Cc1ccccc1)C(=O)N[C@@H](Cc1cnc[nH]1)C(=O)N[C@@H](CCC(=O)O)C(=O)N[C@@H](CCCCN)C(=O)N[C@@H](Cc1cnc[nH]1)C(=O)N[C@@H](Cc1cnc[nH]1)C(=O)N[C@@H](CO)C(=O)N[C@@H](Cc1cnc[nH]1)C(=O)N[C@@H](CCCNC(=N)N)C(=O)NCC(=O)N[C@@H](Cc1ccc(O)cc1)C(=O)O,"Secreted aspartic protease 3 (SAP3, Candida albicans, UniProt P0CY29)","proteolytic degradation, gel densitometry",,"150 µg/mL, 2 h, pH 7.4, together with: SAP3 1.6 µg/mL",,intact peptide remaining,43.3%
CC(=O)O[C@@H]1C[C@@]23C[C@@]24CC[C@H](O[C@@H]2OC[C@@H](O)[C@H](O)[C@H]2O)C(C)(C)[C@@H]4CC[C@H]3[C@]2(C)C[C@@H]3O[C@@]4(C[C@@H](C)[C@@H]3[C@@]12C)OC[C@@]1(C)O[C@@H]41,"Nuclear receptor subfamily 1 group I member 2 (Nr1i2, Mus musculus, UniProt O54915)","luciferase reporter, activator",HepG2 transfected with mouse PXR,50 µM,relative to: vehicle,reporter gene activity,increased
CCCC[C@H](NC(C)=O)C(=O)N[C@@H](CO)C(=O)N[C@H](C(=O)N1CCC[C@H]1C(=O)N[C@@H](C)C(=O)N[C@@H](CCCNC(=N)N)C(=O)N[C@@H](CCCNC(=N)N)C(=O)N[C@@H](CCCNC(=N)N)C(=O)N[C@@H](CC(C)C)C(=O)N[C@@H](CCCC)C(=O)N[C@@H](CCCNC(=N)N)C(=O)N[C@@H](CC(=O)O)C(=O)N[C@@H](Cc1ccccc1)C(=O)N[C@@H](CCCCN)C(=O)N[C@@H](CCCNC(=N)N)C(=O)N[C@@H](CC(C)C)C(=O)N[C@@H](CCC(N)=O)C(N)=O)[C@@H](C)O,PROK,"proteolytic stability, LC-MS",,"25 µM, 41.0 min, pH 7.4",,remaining intact peptide,16%
O=C(O)C(F)(F)C(F)(F)C(F)(F)C(F)(F)C(F)(F)C(F)(F)C(F)(F)F,"Solute carrier family 22 member 12 (SLC22A12, Homo sapiens, UniProt Q96S37)","uptake, substrate","HEK293 cells stably expressing SLC22A12, HBSS with HEPES",pH 7.4,,CLint,1.85 ± 0.4 µL/min/mg
CC1(C)[C@H](C(=O)OCc2cccc(Oc3ccccc3)c2)[C@@H]1C=C(Cl)Cl,human cytosolic CES1,IVIVE from expressed enzymes,"human, 6 months old, expressed human CES1",0.1 µM,relative to: total hepatic CLint in vivo,relative enzyme contribution,29.5%
C[C@H]1CN(c2n[nH]c3nc(N[C@H]4CC[C@H](NS(=O)(=O)CCC(F)(F)F)CC4)ncc23)CCO1,"Malate dehydrogenase, mitochondrial (MDH2, Homo sapiens, UniProt P40926)","inhibitor, Kinobeads competition profiling",,0.032 µM,relative to: vehicle,relative abundance,0.99
CC1(C)C(C=C(Cl)Cl)C1C(=O)OC(C#N)c1ccc(F)c(Oc2ccccc2)c1 (centres unmarked),human microsomal CES2,IVIVE from expressed enzymes,"human, 5 years old, expressed human CES2",0.1 µM,relative to: total hepatic CLint in vivo,relative enzyme contribution,0.24%
CC(=O)N[C@@H](CC(C)C)C(=O)N[C@H](C(=O)N[C@@H](Cc1ccccc1)C(=O)N[C@@]1(C)CCCC=CCCC[C@@](C)(C(=O)N[C@@H](CCC(N)=O)C(=O)N[C@@H](CC(C)C)C(=O)N[C@H](C(=O)N[C@@H](CO)C(N)=O)[C@@H](C)O)NC(=O)[C@H](Cc2c[nH]c3ccccc23)NC(=O)[C@H](Cc2ccc(O)cc2)NC(=O)[C@H](CCC(=O)O)NC1=O)[C@@H](C)O,PROK,proteolytic stability,,120 min,,remaining intact peptide,99%
CC1(C)C(/C=C(\Cl)C(F)(F)F)C1C(=O)OC(C#N)c1cccc(Oc2ccccc2)c1 (centres unmarked),human cytosolic CES1,IVIVE from expressed enzymes,"human, liver, in vivo scaled",age-specific,,enzyme contribution to CLint,38.8%
CC(C)CC(=O)OC[C@H]1O[C@@](C#N)(c2ccc3c(N)ncnn23)[C@H](O)[C@@H]1O,"ATP-dependent translocase ABCB1 (ABCB1, Homo sapiens, UniProt P08183)",,Caco-2,"0.9 µM, together with: zosuquidar 25 µM",,Papp B to A,0.471 ×10⁻⁶ cm/s

# Repeated from above:
Compound,tested on,assay,test system,conditions,scale,endpoint,result
COc1ccc2cc1Oc1ccc(cc1)C[C@H]1c3cc(c(OC)cc3CCN1C)Oc1c(OC)c(OC)cc3c1[C@H](C2)N(C)CC3,"Organic anion transporter 3 (SLC22A8, Homo sapiens, UniProt Q8TCC7)","transport, inhibitor",,"10 µM, together with: ES",,inhibition,20%
CCCC[C@H](NC(C)=O)C(=O)N[C@@H](CO)C(=O)N[C@H](C(=O)N1CCC[C@H]1C(=O)N[C@@H](C)C(=O)N[C@@H](CCCNC(=N)N)C(=O)N[C@@H](CCCNC(=N)N)C(=O)N[C@@H](CCCNC(=N)N)C(=O)N[C@@H](CC(C)C)C(=O)N[C@@H](CCCC)C(=O)N[C@@H](CCCNC(=N)N)C(=O)N[C@@H](CC(=O)O)C(=O)N[C@@H](Cc1ccccc1)C(=O)N[C@@H](CCCCN)C(=O)N[C@@H](CCCNC(=N)N)C(=O)N[C@@H](CC(C)C)C(=O)N[C@@H](CCC(N)=O)C(N)=O)[C@@H](C)O,PROK,"proteolytic stability, LC-MS",,"25 µM, 41.0 min, pH 7.4",,remaining intact peptide,16%
O=S(=O)(c1cccc2c(Cl)cccc12)N1CCCNCC1,Plasmodium falciparum,,Dd2,,,IC50,6.31 µM
